# Experimental data gathered from unrelated publications.
# A part holds a random share of what one study measured. Changes are numbered by the printed parent chain.
# Chain of UniProt P60842 (whole entry, looked up): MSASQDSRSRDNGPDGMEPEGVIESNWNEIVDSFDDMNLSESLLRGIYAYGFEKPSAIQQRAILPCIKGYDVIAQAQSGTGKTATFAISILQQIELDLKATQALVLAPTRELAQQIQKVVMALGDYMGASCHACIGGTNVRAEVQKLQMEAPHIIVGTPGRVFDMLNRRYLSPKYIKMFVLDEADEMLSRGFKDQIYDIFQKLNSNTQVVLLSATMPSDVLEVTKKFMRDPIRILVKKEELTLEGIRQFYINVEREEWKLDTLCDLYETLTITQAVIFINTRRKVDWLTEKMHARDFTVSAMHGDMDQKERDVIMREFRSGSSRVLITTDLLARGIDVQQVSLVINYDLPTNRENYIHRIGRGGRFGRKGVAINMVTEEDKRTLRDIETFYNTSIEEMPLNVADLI
# Chain of UniProt P62344 (whole entry, looked up): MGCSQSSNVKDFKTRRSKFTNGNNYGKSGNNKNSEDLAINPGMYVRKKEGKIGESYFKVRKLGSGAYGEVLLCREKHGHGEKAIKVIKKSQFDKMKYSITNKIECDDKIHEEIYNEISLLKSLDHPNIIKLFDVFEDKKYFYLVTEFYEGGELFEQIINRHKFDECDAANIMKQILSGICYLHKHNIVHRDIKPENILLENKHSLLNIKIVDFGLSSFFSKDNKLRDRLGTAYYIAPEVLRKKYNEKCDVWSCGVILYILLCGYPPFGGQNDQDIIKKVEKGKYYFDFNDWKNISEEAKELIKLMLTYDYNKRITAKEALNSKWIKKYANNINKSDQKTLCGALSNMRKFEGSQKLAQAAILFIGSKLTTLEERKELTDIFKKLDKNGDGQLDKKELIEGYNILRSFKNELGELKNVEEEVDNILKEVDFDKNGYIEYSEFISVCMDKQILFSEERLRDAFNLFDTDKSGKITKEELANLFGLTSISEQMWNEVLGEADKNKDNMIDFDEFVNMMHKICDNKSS

# Sample 1
# Target: CCNA2, cyclin fold, Cln2 fusion (human)
# Technique: yeast growth competition, sequencing
# Sample: yeast
# Notes: strong parent motif
# Baseline: not given
# Direction: higher = stronger binding
# Parent: viral docking peptide; TSVRRALFTGGSD
Change,normalised enrichment score
S2V,5.47
G11W,5.71
R4W,1.79
T9R,6.18
T9M,6.34
G11N,6.17
A6R,6.77
G10Y,6

# Sample 2
# Target: UDP-N-acetylglucosamine--peptide N-acetylglucosaminyltransferase 110 kDa subunit (OGT, Homo sapiens, UniProt O15294)
# Chain of UniProt O15294 (whole entry, looked up): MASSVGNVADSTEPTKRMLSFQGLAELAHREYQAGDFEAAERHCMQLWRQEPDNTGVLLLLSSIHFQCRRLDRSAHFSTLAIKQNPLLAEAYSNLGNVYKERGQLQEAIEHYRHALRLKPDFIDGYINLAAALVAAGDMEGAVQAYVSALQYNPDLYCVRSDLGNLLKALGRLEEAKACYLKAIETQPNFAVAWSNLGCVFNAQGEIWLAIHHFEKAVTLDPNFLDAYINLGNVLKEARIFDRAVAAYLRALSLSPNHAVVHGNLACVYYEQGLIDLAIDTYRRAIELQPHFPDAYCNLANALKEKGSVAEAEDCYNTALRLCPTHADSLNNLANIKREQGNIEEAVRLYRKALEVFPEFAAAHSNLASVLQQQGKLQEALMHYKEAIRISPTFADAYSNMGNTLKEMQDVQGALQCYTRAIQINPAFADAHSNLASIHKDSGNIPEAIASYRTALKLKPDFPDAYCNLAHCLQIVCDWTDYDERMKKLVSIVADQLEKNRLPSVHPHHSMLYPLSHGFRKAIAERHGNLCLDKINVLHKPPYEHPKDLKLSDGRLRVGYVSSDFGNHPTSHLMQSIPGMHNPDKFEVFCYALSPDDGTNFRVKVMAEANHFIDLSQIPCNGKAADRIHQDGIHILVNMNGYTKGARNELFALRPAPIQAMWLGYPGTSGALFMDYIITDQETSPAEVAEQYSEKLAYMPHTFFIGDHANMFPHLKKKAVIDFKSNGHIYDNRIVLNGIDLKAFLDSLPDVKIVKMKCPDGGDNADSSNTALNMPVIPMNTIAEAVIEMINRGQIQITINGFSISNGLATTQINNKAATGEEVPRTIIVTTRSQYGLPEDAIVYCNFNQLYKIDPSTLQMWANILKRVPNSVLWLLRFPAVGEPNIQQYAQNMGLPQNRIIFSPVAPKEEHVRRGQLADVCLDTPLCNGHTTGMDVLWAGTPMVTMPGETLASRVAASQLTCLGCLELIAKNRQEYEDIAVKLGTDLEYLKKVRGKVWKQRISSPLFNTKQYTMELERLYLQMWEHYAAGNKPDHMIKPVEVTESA
# Observed: binding
# Technique: phage display NGS
# Form: peptide
# Concentration: concentration not given
# Notes: normalized abundance
# Baseline: input library
Sequence,enrichment fold change
WQMHHDAYYWDHHLH,75.2
HVTHMHLHRQSDGI,7.84
QLKHTIHHHHTAPRY,7.7
YGEGYITRHTTYHQH,4.66
DDITFPPQYMMTVHR,3.97
ETNQYLPTYQIMYQF,66.3
DDWRPLYQIIYTSQD,69.3
HYDHNQWIHSSFHDH,5.03

# Sample 3
# Cell line: A-375
# Concentration: 100 µM
# Time: 18 h
SMILES,viability
C[C@@H]1O[C@@H](O[C@H]2C[C@@H](O)[C@]3(CO)[C@H]4[C@H](O)C[C@]5(C)[C@@H](C6=CC(=O)OC6)CC[C@]5(O)[C@@H]4CC[C@]3(O)C2)[C@H](O)[C@H](O)[C@H]1O,44.5%
CCCC(C)(COC(N)=O)COC(=O)NC(C)C (centres unmarked),86.9%
CCOC(=O)CC(SP(=S)(OC)OC)C(=O)OCC (centres unmarked),84.8%

# Other studies, line by line
SMILES,target or system,assay,test system,conditions,scale,endpoint,result
Cc1cc(Cl)cc(C(=O)N[C@H](C)CO)c1NC(=O)c1cc(Br)nn1-c1ncccc1Cl,,,"human, microsomes or S9","2 µM, 0.5 h",,remaining compound,78.7%
COc1ccc([C@]23Oc4cc(OC)cc(OC)c4[C@@]2(O)[C@@H](O)C[C@@H]3c2ccccc2)cc1,"EIF4A1 (Homo sapiens, UniProt P60842)","RNA clamping, fluorescence polarization",,"concentration not given, added: FAM-labelled poly r(AG)8 RNA",higher = more clamping,fluorescence polarization change,0.8 mP
CCC(=O)N[C@H]1CC[C@@H](C(=O)N(C)c2ccc(-c3nc4ccccc4o3)cc2)C1,"CDPK1 (Plasmodium falciparum, UniProt P62344)","cell-free assay, competition with immobilised ligand",,1 µM,,remaining binding,83%
O=C1CCC(N2Cc3c(ccc4c3OCC43CCN(Cc4ccccc4)CC3)C2=O)C(=O)N1 (centres unmarked),,,"male CD-1 mouse, plasma","oral, 3 mg/kg",,bioavailability,108%
